Assay results pooled from the literature.
Each numbered part is a random draw from the data of one study; scales do not carry over between parts. Substitutions count along the parent as printed.
Chain of UniProt P62837 (whole entry, looked up): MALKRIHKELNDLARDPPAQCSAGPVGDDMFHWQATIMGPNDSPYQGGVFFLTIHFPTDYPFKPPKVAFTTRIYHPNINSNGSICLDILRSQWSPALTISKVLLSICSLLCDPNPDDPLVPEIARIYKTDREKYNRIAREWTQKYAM
Chain of UniProt P63146 (whole entry, looked up): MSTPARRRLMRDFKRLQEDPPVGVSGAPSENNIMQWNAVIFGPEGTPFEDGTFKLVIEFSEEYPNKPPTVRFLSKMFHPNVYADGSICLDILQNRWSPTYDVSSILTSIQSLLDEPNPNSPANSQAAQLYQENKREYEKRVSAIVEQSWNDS
Chain of UniProt Q9Y2X8 (whole entry, looked up): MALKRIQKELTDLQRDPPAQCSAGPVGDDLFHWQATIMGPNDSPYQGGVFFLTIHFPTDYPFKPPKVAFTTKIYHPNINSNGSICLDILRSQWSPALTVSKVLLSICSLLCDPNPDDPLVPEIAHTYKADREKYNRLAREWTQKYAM
Chain of UniProt Q7Z7E8 (whole entry, looked up): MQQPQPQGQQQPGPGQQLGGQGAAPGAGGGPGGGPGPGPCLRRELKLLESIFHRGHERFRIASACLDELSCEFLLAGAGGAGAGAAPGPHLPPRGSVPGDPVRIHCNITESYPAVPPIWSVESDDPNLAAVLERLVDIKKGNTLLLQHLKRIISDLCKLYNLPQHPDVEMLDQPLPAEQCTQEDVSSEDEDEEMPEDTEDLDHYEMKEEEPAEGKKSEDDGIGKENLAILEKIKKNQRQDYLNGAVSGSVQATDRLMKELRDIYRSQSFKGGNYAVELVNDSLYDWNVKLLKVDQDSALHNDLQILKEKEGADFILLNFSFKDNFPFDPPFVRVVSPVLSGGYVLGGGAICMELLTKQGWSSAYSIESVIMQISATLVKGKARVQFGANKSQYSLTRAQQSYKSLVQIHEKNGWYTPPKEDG
Chain of UniProt Q9C0C9 (whole entry, looked up): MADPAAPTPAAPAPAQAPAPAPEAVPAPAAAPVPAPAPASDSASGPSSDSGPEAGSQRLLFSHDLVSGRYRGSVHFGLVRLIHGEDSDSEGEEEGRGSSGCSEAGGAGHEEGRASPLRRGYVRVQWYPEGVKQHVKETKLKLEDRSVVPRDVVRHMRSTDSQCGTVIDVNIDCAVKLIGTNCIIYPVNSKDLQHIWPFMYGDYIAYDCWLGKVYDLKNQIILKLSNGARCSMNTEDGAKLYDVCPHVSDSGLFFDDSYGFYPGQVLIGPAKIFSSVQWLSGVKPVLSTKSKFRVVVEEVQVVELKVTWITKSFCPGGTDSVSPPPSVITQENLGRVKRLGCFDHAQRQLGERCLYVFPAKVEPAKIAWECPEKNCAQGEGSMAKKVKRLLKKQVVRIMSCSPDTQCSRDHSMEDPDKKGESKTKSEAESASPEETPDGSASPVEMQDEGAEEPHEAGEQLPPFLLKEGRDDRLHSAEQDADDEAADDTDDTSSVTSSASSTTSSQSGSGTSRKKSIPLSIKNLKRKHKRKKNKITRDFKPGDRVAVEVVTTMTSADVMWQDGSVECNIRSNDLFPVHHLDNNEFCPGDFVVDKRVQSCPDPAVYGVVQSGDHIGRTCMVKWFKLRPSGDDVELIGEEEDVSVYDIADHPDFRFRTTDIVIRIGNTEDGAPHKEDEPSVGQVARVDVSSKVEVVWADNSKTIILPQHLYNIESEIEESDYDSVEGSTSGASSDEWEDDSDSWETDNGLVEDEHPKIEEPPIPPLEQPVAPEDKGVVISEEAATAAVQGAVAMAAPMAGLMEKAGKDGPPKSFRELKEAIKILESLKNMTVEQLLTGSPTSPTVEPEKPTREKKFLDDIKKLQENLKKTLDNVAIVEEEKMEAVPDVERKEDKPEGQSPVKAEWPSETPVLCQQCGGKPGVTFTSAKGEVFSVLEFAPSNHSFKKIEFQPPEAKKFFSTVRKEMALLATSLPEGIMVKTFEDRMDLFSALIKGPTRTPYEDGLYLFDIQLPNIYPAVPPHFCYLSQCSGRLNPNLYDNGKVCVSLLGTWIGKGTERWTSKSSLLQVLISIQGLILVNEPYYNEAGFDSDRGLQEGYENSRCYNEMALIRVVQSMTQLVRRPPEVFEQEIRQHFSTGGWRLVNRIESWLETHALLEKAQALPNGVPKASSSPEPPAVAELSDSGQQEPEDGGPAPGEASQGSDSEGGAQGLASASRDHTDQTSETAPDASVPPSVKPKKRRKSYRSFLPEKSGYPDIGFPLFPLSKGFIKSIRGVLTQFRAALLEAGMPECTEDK
Chain of UniProt P51668 (whole entry, looked up): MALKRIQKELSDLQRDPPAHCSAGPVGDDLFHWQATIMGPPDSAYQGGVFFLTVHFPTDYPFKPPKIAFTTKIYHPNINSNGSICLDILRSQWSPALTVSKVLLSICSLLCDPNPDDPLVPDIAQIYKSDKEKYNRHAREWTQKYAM
Chain of UniProt Q16763 (whole entry, looked up): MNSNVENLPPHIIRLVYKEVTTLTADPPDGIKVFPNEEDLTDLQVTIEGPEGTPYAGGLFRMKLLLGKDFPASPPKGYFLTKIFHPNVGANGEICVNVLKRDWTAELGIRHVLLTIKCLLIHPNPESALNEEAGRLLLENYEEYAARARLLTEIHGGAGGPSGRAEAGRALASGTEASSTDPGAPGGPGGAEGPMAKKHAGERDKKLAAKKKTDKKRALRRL
Chain of UniProt Q712K3 (whole entry, looked up): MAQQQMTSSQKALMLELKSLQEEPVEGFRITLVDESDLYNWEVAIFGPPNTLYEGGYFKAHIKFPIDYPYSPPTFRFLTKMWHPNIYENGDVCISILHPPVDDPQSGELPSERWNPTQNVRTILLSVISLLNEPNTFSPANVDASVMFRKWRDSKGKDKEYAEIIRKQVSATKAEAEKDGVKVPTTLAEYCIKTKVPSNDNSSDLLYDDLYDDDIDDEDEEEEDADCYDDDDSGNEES
Chain of UniProt Q9H832 (whole entry, looked up): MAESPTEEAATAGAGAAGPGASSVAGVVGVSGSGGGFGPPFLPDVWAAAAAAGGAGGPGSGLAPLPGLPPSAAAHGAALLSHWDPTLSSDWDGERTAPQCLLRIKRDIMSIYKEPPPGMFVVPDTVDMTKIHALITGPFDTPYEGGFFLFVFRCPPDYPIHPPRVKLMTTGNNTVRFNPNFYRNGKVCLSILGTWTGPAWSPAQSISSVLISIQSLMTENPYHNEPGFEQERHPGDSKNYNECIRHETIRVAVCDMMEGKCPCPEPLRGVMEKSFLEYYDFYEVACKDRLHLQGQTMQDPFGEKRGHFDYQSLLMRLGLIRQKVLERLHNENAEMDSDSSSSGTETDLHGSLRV

Study 1
Target: RNA binding protein fox-1 homolog 2, RRM domain, GST-SBP tag (RBFOX2, Homo sapiens, UniProt O43251-10, residues 100-194)
Technique: RNA Bind-n-Seq
Molecule type: RNA
Matrix: in vitro
Concentration: 365 nM
Setting: natural RNA segment, single round, ends assumed
Reference: no-protein control
Reading: higher = stronger binding
Construct (chain): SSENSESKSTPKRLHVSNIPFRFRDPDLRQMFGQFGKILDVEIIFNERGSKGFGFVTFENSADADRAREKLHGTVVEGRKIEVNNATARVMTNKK
| Sequence | RBNS enrichment (R) |
| --- | --- |
| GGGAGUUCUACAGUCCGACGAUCGGAAGUCCCUUUUCCUUGGACUGGUAUCUUUUCAACUAUUGUUUUAUCCUGUCUUUGGGGGCAAUGUGUCAAAAGUCCCCUCAGGAAUUUUCAGAGGAAAGAACAUUUUAUGGAAUUCUCGGGUGCCAA | 0.347 |
| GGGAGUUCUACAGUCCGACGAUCAAAGCCAGAAGAGCAGCCUCGGGAAAGACAGACGGAAGUCCGGCAACCCAGCUGUAGGCGCUUACACUGAAAUCUAAGUCUGUAUAGUGAACGCCAGCGGCGGCCGACUUUGGAAUUCUCGGGUGCCAA | 0.277 |
| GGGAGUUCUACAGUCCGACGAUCCCAAUCCCGGUCAUGCUUUUGCCACUUUGGCUUCUCCUGUGACCCCACCUUGACGGUGGGGCGUAGACUUGACAACAUCCCACAGUGGCACGGAGAGAAGGCCCAUACCUUGGAAUUCUCGGGUGCCAA | 0.178 |
| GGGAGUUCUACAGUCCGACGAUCCUCCUCGCAUCGUGAGCUGAGGCUGCAGCAUUGGAACAAAACAGCAUUACAUCACUUUUCCUUUAAUUUUUUUUUCCUUUUGUUUUGUUGUUGUUUGUUGUUCAUUUAAAUGGAAUUCUCGGGUGCCAA | 4.75 |
| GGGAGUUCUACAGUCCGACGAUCCAUGGCGUUUGGUUCUCCUUCCUUCUCUCUCCUGCUCACUUCUCUGCCGCGCAACACAUCUCUCUGAGGCUGGCAAGCCUCGCCCCUCGCAGUGACGUCCUCCCACGCCUUGGAAUUCUCGGGUGCCAA | 0.802 |
| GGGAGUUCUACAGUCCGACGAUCAGGCCUCCCUGUUUGAAGCCUGCCCUUGUCUGAGAUGCUGGUAAUGGCCAUGGUACCCCCUUCUGGGCAUCUGUUCUGGUUUUUAACCAUUGUCUUGUUCUGUGAUGAGGUGGAAUUCUCGGGUGCCAA | 1.54 |
| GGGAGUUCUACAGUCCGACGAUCUUCCAUCUAAAAAACCCUCGACCCGAAACCCUCACCAGAUAAACUACAGUUUGUUUAGGAGGCCCUGACCUUCAUGGUGUCUUUGAAGCCCAACCACUCGGUUUCCUUCGUGGAAUUCUCGGGUGCCAA | 0.351 |
| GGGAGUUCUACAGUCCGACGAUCUAAAGGCACAUGUUGGAACACAUCCAGUCCUGCUGACCUGUAGAUAAUUAUUUUUCUCUAAAUGAACUGUACAUUUAUCUUAAAUAAAAAUUUAUUUUUGAGAUAACUGUUGGAAUUCUCGGGUGCCAA | 0.382 |
| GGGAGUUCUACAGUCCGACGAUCACACCCAUUUCUAUUCAUUUCUGUAUAAAGAACAGUACAGAACAGUAUCGGGAUCUUUGUUGGUUUGACAUUGCUGUUUUGGGUUAAGAUAUUGAGUCUAGGCUCCAAUUUGGAAUUCUCGGGUGCCAA | 0.347 |
| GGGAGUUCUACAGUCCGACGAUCAGCAGGCUGAUGGAAGAUGGCGGGGCCUGCCAACCCCGAGGCUGGGGGAUCGCCAUAUGGACCACCUGGUUGACAGACGGCUUCUUGCUUGCCUGGGCCUUCUGCCUUAUUGGAAUUCUCGGGUGCCAA | 0.772 |
| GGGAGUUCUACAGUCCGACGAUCCGUCCGUACCCAGCUAACCUCUCUCCCAUGCUGGAUGAAGAAGUUCUUAACUUCCCAAGCUGCAGAAUAGCAACCUUUUAAGCUUUCACACACUUUCCUCUUAAGAUCCGUGGAAUUCUCGGGUGCCAA | 0.398 |
| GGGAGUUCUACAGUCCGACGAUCCCUGGGACUCCUUCCUCAAGAUCUGGAACUAUGGCCCCACCCCCACUGGGCCCAGGCCAGGAGGGGCCCUGCCCAUGCCCACACUACAGGCCAGGGCUGCGGGGCUGGCGUGGAAUUCUCGGGUGCCAA | 0.466 |

Study 2
Target: CCNF, cyclin fold, Cln2 fusion (human)
Technique: yeast growth competition, sequencing
Matrix: yeast
Setting: strong parent motif
Reference: not given
Reading: higher = stronger binding
Starting sequence: HASPIN docking peptide (human); ASLRSVLFGLMNS
| Change | normalised enrichment score |
| --- | --- |
| AALRSVLFGLMNS [S2A] | 0.901 |
| ASLRSVLFGAMNS [L10A] | 1.38 |
| ASLRSVLFALMNS [G9A] | 2.04 |
| ASLRSVLFGLMAS [N12A] | 2.73 |
| ASLRSVLAGLMNS [F8A] | 0.767 |
| ASLASVLFGLMNS [R4A] | 0.715 |

Study 3
Sequence: B1 (RNF5 RING domain)
Technique: yeast two-hybrid
Matrix: yeast
Setting: mostly zero background
Reference: not given
Reading: higher = stronger interaction
B1: RNF5 RING domain (UniProt Q99942); chain ERGGAGATFECNICLETAREAVVSVCGHLYCWPCLHQWLETRPERQECPVCKAGISREKVVP
| target | lacZ reporter activity |
| --- | --- |
| UBE2S UBC core domain (UniProt Q16763) | 0 |
| UBE2D4 UBC core domain (UniProt Q9Y2X8) | 0 |
| UBE2O UBC core domain (UniProt Q9C0C9) | 0 |
| UBE2D1 UBC core domain (UniProt P51668) | 0 |
| UBE2D2 UBC core domain (UniProt P62837) | 0 |
| UBE2Q1 UBC core domain (UniProt Q7Z7E8) | 0 |
| UBE2Z UBC core domain (UniProt Q9H832) | 0 |
| UBE2B UBC core domain (UniProt P63146) | 0 |
| UBE2R2 UBC core domain (UniProt Q712K3) | 0 |

Study 4
Target: Histone acetyltransferase KAT6A, winged helix 2, GST fusion (KAT6A, Homo sapiens, UniProt Q92794, residues 85-181)
Technique: protein binding microarray
Molecule type: double-stranded DNA, one strand shown
Matrix: in vitro
Concentration: not given
Setting: 8-mer, flanks averaged, mean of 2 arrays, mostly near background
Reference: not given
Reading: higher = stronger binding
Residues (chain): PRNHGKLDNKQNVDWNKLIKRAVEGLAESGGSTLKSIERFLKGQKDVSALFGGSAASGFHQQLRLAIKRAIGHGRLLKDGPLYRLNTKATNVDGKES
| Sequence | E-score |
| --- | --- |
| TCCTGGCA | 0.0656 |
| AAAGGCGT | -0.0784 |
| CAGTGGTC | -0.0667 |
| ACGCTCTG | -0.00524 |
| GAGGTCGC | -0.0648 |
| ACCCGGAT | 0.139 |
| ACCACTGC | -0.15 |
| AGGTAGAA | -0.129 |
| AGAGATTG | -0.12 |
| CCCTAAAC | -0.163 |
| GAAACTTC | 0.0445 |
| CATGGGTA | -0.2 |
| CCTGATTA | 0.0192 |
| ATTTATTC | 0.0898 |
| TCTTGCCA | 0.012 |
| CAAGGCGC | 0.0475 |
| CAGAGGAC | -0.0236 |
| GCGCTAGA | 0.0167 |
| AATAAGTC | -0.238 |
| AGCGTTAC | -0.184 |
| CATAGCTC | -0.0772 |
| ATCGCTGG | -0.019 |
| CGCGTTCA | 0.184 |

Study 5
Target: Fragile X messenger ribonucleoprotein 1, C-terminal low-complexity region (Fmr1, Mus musculus, UniProt P35922)
Technique: RNA Bind-n-Seq
Molecule type: RNA
Matrix: in vitro
Concentration: 200 nM
Setting: whole 134-nt RNA, ends assumed
Together with: 150 mM LiCl
Reference: input library
Reading: higher = stronger binding
Each molecule: 7-deaza-guanosine replaces G
| Sequence | log2 enrichment |
| --- | --- |
| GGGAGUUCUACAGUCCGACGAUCCACUGACAACACGCACCCACACAGACACAGAGGGAAGGGGUUGGGAUGGGGACAGGGUGCACAGCAGGGCGGGGUAGGACCCCAGCCCCUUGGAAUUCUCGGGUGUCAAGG | -0.227 |
| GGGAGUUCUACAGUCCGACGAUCAGUCCUGUGCUACACAUCGUAUGUACCGAAUCAAACCCAAAUUUUUUUAAACCCAAAAAAGUAUUAUGUUACGCCGUUCGGAUCUGCACUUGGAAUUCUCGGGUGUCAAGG | 0.114 |
| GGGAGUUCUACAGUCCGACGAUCUCCUGUGCUACACAUCGUAUGUACCGAAUCGGAAAAAAAGGAAAAAAAGGGAAAAAAAGGAAAGUAUUAUGUUACGCCGUUCGGAUCUGCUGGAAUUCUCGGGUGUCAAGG | -0.597 |
| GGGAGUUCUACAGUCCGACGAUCUUGUGGUAUUUUAUUUACUUAUUUUUUUAAAUCUUCCAUUACAGCCAUGCCUUUCUUGGACAUCCAGAAAAGGUUCGGCCUUAACAUAGAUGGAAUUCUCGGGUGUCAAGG | 1.69 |
| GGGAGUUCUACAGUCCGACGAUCCCUCAAGUCCUGUGCUACACAUCGUAUGUACCGAAUCGGGUUGGGUUGGUUGGAAAGUAUUAUGUUACGCCGUUCGGAUCUGCACUUCCAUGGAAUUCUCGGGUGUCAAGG | 0.0376 |
| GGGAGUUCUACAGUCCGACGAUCGUCCUGUGCUACACAUCGUAUGUACCGAAUCGGGGUUUGGGGAGGGGUUUUUUUGGGGAAAGUAUUAUGUUACGCCGUUCGGAUCUGCACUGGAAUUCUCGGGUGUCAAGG | 0.0759 |
| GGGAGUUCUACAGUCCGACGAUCAAGUCCUGUGCUACACAUCGUAUGUACCGAAUCGGAAAGGAAAAAAAGGAAAAAGGAAAGUAUUAUGUUACGCCGUUCGGAUCUGCACUUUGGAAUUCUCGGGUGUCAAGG | -1.17 |
| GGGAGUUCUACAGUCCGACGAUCCUCAAGUCCUGUGCUACACAUCGUAUGUACCGAAUCGGGAGGGAGGGAAAGGGAAAGUAUUAUGUUACGCCGUUCGGAUCUGCACUUCCAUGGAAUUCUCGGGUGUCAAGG | -0.345 |
| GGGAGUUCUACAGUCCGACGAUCUGGCUUCCUUCUUUCUAUUCCCCGCCUGCCUUCCAUGGUAGAGGCCAGUGACUUUGAGAUUAAUGGACUGGACUUCAUGGUAAGACCCUCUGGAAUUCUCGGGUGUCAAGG | 1.38 |
| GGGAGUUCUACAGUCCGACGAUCCACAGACAACACGCACCCAUACAGACACAGAGGGAAGGGGUUGGGAUGGGGACAGGGUGCACAGCAGGGCGGGGUAGGACCCCAGCCCCUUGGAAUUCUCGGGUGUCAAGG | 0.305 |
| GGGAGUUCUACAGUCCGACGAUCGGAUCAAAGCAAGUUGGAGAAACAUCAGCACCUGGAGACACCUUAGAUGGCACACCUCGUACUCUCAAUACUGUCUUUGAUUUCCCACCAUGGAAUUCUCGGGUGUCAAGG | 1.05 |

Some of these lines once more (study 4):
| Sequence | E-score |
| --- | --- |
| CAGTGGTC | -0.0667 |
| ACGCTCTG | -0.00524 |
| GAGGTCGC | -0.0648 |
| ACCCGGAT | 0.139 |
| ACCACTGC | -0.15 |
| AGGTAGAA | -0.129 |
| AGAGATTG | -0.12 |
